Results of several laboratories.
A part holds a random share of what one study measured. Substitutions count along the parent as printed.

Sample 1
Target: ABI1, truncated, D143A, DHFR fusion (Arabidopsis thaliana)
Method: DHFR PCA, deep sequencing
Sample: yeast
Notes: methotrexate growth selection, single substitutions
Added: (+)-ABA 0.0091 µM
Reference: wild-type fitted maximum
Direction: higher = stronger binding
Quantity: relative binding score
Starting sequence: PYL1, truncated, DHFR fusion (Arabidopsis thaliana); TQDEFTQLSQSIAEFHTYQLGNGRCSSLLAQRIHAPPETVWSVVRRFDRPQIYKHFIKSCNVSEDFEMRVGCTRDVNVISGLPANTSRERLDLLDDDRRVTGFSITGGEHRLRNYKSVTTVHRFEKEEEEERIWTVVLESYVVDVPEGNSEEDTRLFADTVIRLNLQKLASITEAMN; partner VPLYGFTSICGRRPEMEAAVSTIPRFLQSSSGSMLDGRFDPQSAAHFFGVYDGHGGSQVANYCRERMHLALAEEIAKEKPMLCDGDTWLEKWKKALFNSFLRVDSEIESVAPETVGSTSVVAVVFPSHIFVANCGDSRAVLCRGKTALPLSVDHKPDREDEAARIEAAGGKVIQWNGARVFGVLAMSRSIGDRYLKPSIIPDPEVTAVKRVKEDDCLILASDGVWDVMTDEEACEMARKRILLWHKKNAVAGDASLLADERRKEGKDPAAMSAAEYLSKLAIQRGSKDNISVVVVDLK
M68D: 0.347%
D48R: -0.474%
L91G: 2.83%
K116N: 4.74%
F5N: 0.817%
N77E: 67.3%
S42E: 34.6%
I172A: -2.29%
N114P: -1.73%
H55G: 0.208%
E67Q: 28.6%
P83C: 10.1%
L94G: -4.36%
D153F: -3.66%
D75S: 16.5%
K116F: -7.36%
S117W: -1.43%
R24M: 12.5%
Q167R: 18.4%
E4K: 0.171%

Sample 2
Target: Histone acetyltransferase KAT6A, winged helix 1, GST fusion (KAT6A, Homo sapiens, UniProt Q92794, residues 1-85)
Method: protein binding microarray
Molecule type: double-stranded DNA, one strand shown
Sample: in vitro
Concentration: not given
Notes: 8-mer, flanks averaged, mean of 2 arrays, mostly near background
Reference: not given
Direction: higher = stronger binding
Quantity: E-score
Construct (chain): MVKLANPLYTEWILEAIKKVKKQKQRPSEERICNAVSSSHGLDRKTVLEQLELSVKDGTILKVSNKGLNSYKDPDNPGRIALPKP
AATTTGTC: -0.189
ACGGTCAG: 0.135
ATCGAACC: 0.0405
ACTCGACT: -0.278
CCTTCGAG: -0.0277
ATGCAGTG: -0.203
ACATCCAC: -0.197
CAATAGTG: 0.034
AAGGGCAC: -0.158
CCGAGCCC: 0.204
CACAGCAA: -0.00194
GGCCTAGA: -0.0253
CGGGAGAC: 0.246
AGCACATC: -0.139
CACTTTCA: -0.0605
GAAGGGCC: -0.0315
GAGATCCC: 0.0192
CCTACCTA: -0.23
CACAAATG: -0.172
CGGGCTAG: 0.181
CTAACACC: -0.0994
CGTTGTTC: 0.0497
ACACTATC: -0.0701
ACCCAGAT: -0.23
TCGCCGAA: 0.154

Sample 3
Target: Prothrombin, mature alpha-thrombin (F2, Homo sapiens, UniProt P00734)
Method: aptamer microarray, sandwich
Molecule type: DNA with 2'F-ANA
Sample: in vitro
Concentration: 200 nM
Notes: whole 15-mer aptamer, many near background
Added: Cy3 exosite-II aptamer, 400 nM
Direction: higher = stronger binding
Quantity: mean fluorescence intensity
Sequence: GGTTGGTGTGGTTGG
2'F-ANA at 2 6 10 12 13 14 15: 81.9 a.u.
2'F-ANA at 1 2 3 5 6 7 8 9 10 13 14 15: 89.9 a.u.
2'F-ANA at 5 7 9 12 14 15: 46.4 a.u.
2'F-ANA at 1 2 3 4 5 6 8 9 11 13: 50.8 a.u.
2'F-ANA at 2 4 5 7 10 13 14: 44.6 a.u.
2'F-ANA at 2 3 6 7 8 11 12 13 14 15: 381 a.u.
2'F-ANA at 1 4 5 6 10 11 12 13: 48.9 a.u.
2'F-ANA at 1 2 3 6 7 8 9 10 12 13 14 15: 61.4 a.u.
2'F-ANA at 1 5 6 8 11: 54.5 a.u.
2'F-ANA at 1 2 3 4 5 6 8 9 10 11 12 15: 51.1 a.u.
2'F-ANA at 1 4 6 8 10 12 13 15: 63.6 a.u.
2'F-ANA at 5 6 14: 43.7 a.u.
2'F-ANA at 3 4 6 10 11: 240 a.u.
2'F-ANA at 1 3 9 11 12 15: 366 a.u.
2'F-ANA at 4 5 6 8 9 11 12 15: 106 a.u.
2'F-ANA at 1 2 4 5 8 9 11 12 13 14: 291 a.u.
2'F-ANA at 1 2 7 9 11 13: 107 a.u.
2'F-ANA at 1 2 4 5 6 8 11 12 13 14 15: 55.6 a.u.
2'F-ANA at 5 6 9 10 12 14: 44 a.u.
2'F-ANA at 1 3 4 6 7 8 9 10 13 14 15: 55.4 a.u.
2'F-ANA at 1 2 4 5 6 7 8 9 10 11 13: 96.8 a.u.
2'F-ANA at 1 2 3 7 8 10 11 13 14: 53.1 a.u.
2'F-ANA at 5 6 8 9 10 11 12 13 14: 50.5 a.u.
2'F-ANA at 3 4 5 6 8 10 12 13 14: 84.5 a.u.
2'F-ANA at 1 3 6 8 9 11 12 14: 101 a.u.

Sample 4
Target: CCND1, cyclin fold, Cln2 fusion (human)
Method: yeast growth competition, sequencing
Sample: yeast
Notes: weak parent motif
Reference: not given
Direction: higher = stronger binding
Quantity: normalised enrichment score
Starting sequence: BRCA2 docking peptide (human); PSIKRNLLNEFDR; partner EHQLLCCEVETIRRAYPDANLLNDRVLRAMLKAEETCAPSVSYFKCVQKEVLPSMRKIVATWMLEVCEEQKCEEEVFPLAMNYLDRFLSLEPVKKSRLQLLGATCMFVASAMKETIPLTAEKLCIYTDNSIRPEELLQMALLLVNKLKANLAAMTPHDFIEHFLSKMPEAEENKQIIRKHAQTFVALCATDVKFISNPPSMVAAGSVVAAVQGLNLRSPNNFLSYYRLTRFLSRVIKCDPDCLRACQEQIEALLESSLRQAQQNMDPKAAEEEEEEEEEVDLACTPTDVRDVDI
PSIKRNLLNGFDR [E10G]: -0.0695
PSIKRNLLNEFDM [R13M]: 0.549
PSIKRNLLNEFSR [D12S]: 0.441
PSIKRNLLNEYDR [F11Y]: 0.361
PSIKRELLNEFDR [N6E]: 0.416
PSIKRSLLNEFDR [N6S]: 0.193
QSIKRNLLNEFDR [P1Q]: 1.07
PSIGRNLLNEFDR [K4G]: 0.143
PSIMRNLLNEFDR [K4M]: 0.461
PSCKRNLLNEFDR [I3C]: 1.2
PSIKRNLLNEFVR [D12V]: 0.684
PSIKRNLLNEQDR [F11Q]: -0.008
PSIKRNSLNEFDR [L7S]: -0.206
PRIKRNLLNEFDR [S2R]: -0.0156
PSIKRNQLNEFDR [L7Q]: 0.569
PSINRNLLNEFDR [K4N]: 0.0365
PSIKRNLLWEFDR [N9W]: 0.905
PSIKRPLLNEFDR [N6P]: 0.684
PSIKRNLLNEFQR [D12Q]: 0.494
PSIRRNLLNEFDR [K4R]: 0.113
PVIKRNLLNEFDR [S2V]: 0.111

Sample 5
Target: Centromere-binding protein 1, full length, His-tagged (CBF1, Saccharomyces cerevisiae, UniProt P17106, residues 1-351)
Chain of UniProt P17106 (whole entry, looked up): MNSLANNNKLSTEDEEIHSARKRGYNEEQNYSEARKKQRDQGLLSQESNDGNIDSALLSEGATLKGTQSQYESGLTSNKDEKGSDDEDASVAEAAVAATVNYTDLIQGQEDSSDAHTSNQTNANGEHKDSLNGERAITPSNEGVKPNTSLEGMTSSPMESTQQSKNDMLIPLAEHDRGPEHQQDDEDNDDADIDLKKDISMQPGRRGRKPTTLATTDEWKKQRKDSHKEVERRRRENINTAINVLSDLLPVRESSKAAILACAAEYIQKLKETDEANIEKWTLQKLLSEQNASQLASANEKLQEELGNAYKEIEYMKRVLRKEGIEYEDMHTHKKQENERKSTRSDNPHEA
Method: competition protein-binding microarray
Molecule type: double-stranded DNA, one strand shown
Sample: in vitro
Concentration: 2 µM
Notes: whole 60-bp probe, lowest competitor level
Added: Pho4 competitor, 0.05 µM
Direction: higher = stronger binding
Quantity: fluorescence intensity
Shared flanks, not repeated: … GTCTTGATTCGCTTGACGCTGCTG
CAAAAGTATCTTGACAACGTGGTCGAAATTGAGTAA: 237 a.u.
CCTTTGGTTTAGATGCACGTGTTGACGACATGAAAG: 2150 a.u.
CGTCCTAGTGATTGCTTAGTGGGTGCCATGAGGAAG: 87.7 a.u.
AAATTACTAAGTTTTCACGTGGTATACCCCGTATGA: 865 a.u.
GCGGGCCGCTTTCCGCACGGCCTTATCTGGGGAATG: 57 a.u.
TGGGAAGAAAAAAAGCACGTGAGCCTGGAAAATCCG: 2170 a.u.
CTAACGAAGGTTTGTCTGGTGGGTGACAAGCCAAGT: 68.3 a.u.
TACCCGGATACTTATCATGTTATGGTCTTTAATCAA: 88.5 a.u.
GTTTTGAATGTTTTCCTCGTGTGGAAGTAGAGTAGG: 87.4 a.u.
CTCTTCCTCAAGCGTCACCTGATCTCTTCTTTCCCA: 1630 a.u.
ATCGATTCGAAATCGCACGTAGCTGGTCATACGGCC: 80.5 a.u.
CTAACGAAGGTTTGCGTTGTGGGTGACAAGCCAAGT: 75.7 a.u.
CGTCCTAGTGATTGGGTTGTGGGTGCCATGAGGAAG: 96.2 a.u.
CTATGAAGACAACATCACCTGGAATGACATCTGGGG: 83.9 a.u.
CTTTCCCGATCTTGCCCTGTGGGTGTAGCACATTTG: 82.2 a.u.
TGCGCAACAACTTGTCACAACACTTTATGTCTAGAA: 103 a.u.
TGCGCAACAACTTCTCACGTGTTTTTATGTCTAGAA: 1570 a.u.
TTCAGGGCTGCTCACAACGTGATGGATTTGAATTGA: 332 a.u.
CCAAATAAAAGAATGTTCGTGCAAAAAGTTGCAAAA: 76.5 a.u.
TTAATGACTCCGGTGGTCGTGATGGTAATCTTGATA: 82.6 a.u.
AGGGCATTGTCTACTCACGTGGTAATCAAATTCCAG: 2460 a.u.
CGTCCTAGTGATTGCATCGTGGGTGCCATGAGGAAG: 96.3 a.u.
AGGCCAATGCTGCTAAGCGTGCTAAAGCCAAGGCCC: 54.9 a.u.
AAAGCGGTAATTTTTCACGTGCGTTCACATATCTAT: 1040 a.u.
ACTGTTAAGAACCGTCACGTCTTCCTTTGGCTTTGA: 93.8 a.u.

Repeated from above (sample 1):
M68D: 0.347%
D48R: -0.474%
L91G: 2.83%
K116N: 4.74%
F5N: 0.817%
N77E: 67.3%
S42E: 34.6%
I172A: -2.29%
N114P: -1.73%
H55G: 0.208%
E67Q: 28.6%
P83C: 10.1%
